Experimental data from different studies.
Lines come from different studies, so protocols differ.

Compound	cell line	assay	conditions	how to read	measurement	result
Cc1c(C(=O)O)ccc2c3n(nc12)[C@@H]1[C@H](C3)N(CC2CC2)[C@@]2(C(=O)Nc3cc(Cl)ccc32)[C@H]1c1cccc(Cl)c1F	SJSA-1 (MDM2-amplified)	cell proliferation, alamarBlue	120 h		IC50	0.01 µM
CC[C@@H](C)[C@H](N)C(=O)N1Cc2ccccc2C1	MV4-11	cell viability, CellTiter-Glo		baseline: DMSO	IC50	1.1 µM
Cc1nc(NC(=O)N2CCC[C@H]2C(N)=O)sc1-c1ccnc(C(C)(C)C(F)(F)F)c1	HCC1954	western blot, refers to: phospho-PKB/Akt Ser473	2 h		IC50	0.149 µM
CC[C@H](C)n1cc(C)c2c(C(=O)NCc3c(C)cc(C)[nH]c3=O)cc(-c3ccc(N4CCNCC4)nc3)cc21	OCI-Ly1		0.1 µM, 120 h		viability	195%
O=C(O)COCC(=O)O	hepatocytes, iPSC-derived, line W1	cell viability, RealTime-Glo MT	72 h, differentiation day 23		IC50	11100 µM
COc1cc2c(NC3CCN(C)CC3)nc(N3CCCN(C)CC3)nc2cc1OCCOCCN(C)C	OCI-Ly1		0.1 µM, 120 h		viability	188%
CCCCN1C[C@H](O)[C@@H](O)[C@@H](O)[C@H]1CO	sample H patient fibroblasts	acidic compartment staining, LysoTracker Red imaging	216 h		IC50	13.6 µM
COc1ccc(F)cc1C(=O)NCc1ccc(-c2nn([C@@H](C)C(F)(F)F)c(N)c2C(N)=O)cc1	Rec1	refers to: FRACTALKINE	24 h		IC50	> 0.1 µM
CCCCN1C[C@H](O)[C@@H](O)[C@H](O)[C@H]1CO	GM2 AB-variant fibroblasts	lysosomal accumulation, LysoTracker staining	8 days		IC50	28 µM
Cc1c(C)c2c(c(C)c1O)CCC(C)(COc1ccc(CC3SC(=O)NC3=O)cc1)O2 (stereo not shown)	hepatocytes, iPSC-derived, line W1	cell viability, RealTime-Glo MT	24 h, differentiation day 23		IC50	23 µM

Some of these lines once more:
Compound	cell line	assay	conditions	how to read	measurement	result
COc1cc2c(NC3CCN(C)CC3)nc(N3CCCN(C)CC3)nc2cc1OCCOCCN(C)C	OCI-Ly1		0.1 µM, 120 h		viability	188%
Cc1nc(NC(=O)N2CCC[C@H]2C(N)=O)sc1-c1ccnc(C(C)(C)C(F)(F)F)c1	HCC1954	western blot, refers to: phospho-PKB/Akt Ser473	2 h		IC50	0.149 µM
